Results of several laboratories.
Compare with care: the assays were run in different laboratories. “And” joins repeats or separate records; there may be more than shown. Numbers after ± are the reported error.
CYP2A6: Cytochrome P450 2A6 (CYP2A6, Homo sapiens, UniProt P11509)
Sequence of UniProt P11509 (whole entry, looked up): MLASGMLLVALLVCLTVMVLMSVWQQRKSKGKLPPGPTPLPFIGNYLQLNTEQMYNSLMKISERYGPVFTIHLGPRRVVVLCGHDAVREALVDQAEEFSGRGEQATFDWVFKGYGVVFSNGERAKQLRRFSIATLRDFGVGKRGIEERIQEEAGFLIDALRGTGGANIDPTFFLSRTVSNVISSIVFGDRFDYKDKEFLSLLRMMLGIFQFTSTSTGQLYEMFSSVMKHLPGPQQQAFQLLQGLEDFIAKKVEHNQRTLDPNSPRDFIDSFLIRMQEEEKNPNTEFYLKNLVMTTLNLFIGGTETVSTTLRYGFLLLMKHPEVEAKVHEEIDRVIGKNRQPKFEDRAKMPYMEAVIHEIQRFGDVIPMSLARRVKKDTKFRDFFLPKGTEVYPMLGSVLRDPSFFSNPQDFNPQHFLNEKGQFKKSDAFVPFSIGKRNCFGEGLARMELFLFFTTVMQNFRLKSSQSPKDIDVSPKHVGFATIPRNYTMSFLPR
ABCG2: Broad substrate specificity ATP-binding cassette transporter ABCG2 (ABCG2, Homo sapiens, UniProt Q9UNQ0)
Sequence of UniProt Q9UNQ0 (whole entry, looked up): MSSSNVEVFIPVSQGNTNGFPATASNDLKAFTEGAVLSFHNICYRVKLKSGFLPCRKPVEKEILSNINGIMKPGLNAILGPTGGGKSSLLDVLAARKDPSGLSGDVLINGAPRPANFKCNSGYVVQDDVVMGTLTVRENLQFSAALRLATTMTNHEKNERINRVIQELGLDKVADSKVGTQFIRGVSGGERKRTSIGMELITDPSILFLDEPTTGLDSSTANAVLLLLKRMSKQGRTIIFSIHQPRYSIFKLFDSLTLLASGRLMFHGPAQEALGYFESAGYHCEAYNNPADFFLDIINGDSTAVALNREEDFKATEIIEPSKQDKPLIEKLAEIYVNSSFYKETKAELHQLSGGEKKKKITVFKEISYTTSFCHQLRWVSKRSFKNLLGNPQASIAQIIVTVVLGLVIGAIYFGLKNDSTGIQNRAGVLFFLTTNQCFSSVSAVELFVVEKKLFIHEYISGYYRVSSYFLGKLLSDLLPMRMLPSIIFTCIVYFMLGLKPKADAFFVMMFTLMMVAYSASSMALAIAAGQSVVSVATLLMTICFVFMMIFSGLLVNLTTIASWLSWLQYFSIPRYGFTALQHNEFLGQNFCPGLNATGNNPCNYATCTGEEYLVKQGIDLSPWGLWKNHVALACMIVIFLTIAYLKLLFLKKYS
CYP3A4: Cytochrome P450 3A4 (CYP3A4, Homo sapiens, UniProt P08684)
Sequence of UniProt P08684 (whole entry, looked up): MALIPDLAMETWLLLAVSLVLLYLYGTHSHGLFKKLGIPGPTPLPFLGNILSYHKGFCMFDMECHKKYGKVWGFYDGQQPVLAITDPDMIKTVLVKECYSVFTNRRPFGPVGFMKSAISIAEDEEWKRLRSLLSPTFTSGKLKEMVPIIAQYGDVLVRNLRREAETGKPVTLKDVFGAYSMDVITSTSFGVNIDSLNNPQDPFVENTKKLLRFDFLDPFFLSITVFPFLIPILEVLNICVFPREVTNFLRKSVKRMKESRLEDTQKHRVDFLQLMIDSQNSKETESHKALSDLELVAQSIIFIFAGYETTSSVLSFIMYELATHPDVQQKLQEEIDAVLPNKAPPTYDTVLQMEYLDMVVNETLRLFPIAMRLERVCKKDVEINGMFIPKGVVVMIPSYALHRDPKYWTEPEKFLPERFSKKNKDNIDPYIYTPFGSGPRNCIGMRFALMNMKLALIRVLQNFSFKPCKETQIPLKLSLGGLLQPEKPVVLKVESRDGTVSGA
KCNH2: Voltage-gated inwardly rectifying potassium channel KCNH2 (KCNH2, Homo sapiens, UniProt Q12809)
Sequence of UniProt Q12809 (whole entry, looked up): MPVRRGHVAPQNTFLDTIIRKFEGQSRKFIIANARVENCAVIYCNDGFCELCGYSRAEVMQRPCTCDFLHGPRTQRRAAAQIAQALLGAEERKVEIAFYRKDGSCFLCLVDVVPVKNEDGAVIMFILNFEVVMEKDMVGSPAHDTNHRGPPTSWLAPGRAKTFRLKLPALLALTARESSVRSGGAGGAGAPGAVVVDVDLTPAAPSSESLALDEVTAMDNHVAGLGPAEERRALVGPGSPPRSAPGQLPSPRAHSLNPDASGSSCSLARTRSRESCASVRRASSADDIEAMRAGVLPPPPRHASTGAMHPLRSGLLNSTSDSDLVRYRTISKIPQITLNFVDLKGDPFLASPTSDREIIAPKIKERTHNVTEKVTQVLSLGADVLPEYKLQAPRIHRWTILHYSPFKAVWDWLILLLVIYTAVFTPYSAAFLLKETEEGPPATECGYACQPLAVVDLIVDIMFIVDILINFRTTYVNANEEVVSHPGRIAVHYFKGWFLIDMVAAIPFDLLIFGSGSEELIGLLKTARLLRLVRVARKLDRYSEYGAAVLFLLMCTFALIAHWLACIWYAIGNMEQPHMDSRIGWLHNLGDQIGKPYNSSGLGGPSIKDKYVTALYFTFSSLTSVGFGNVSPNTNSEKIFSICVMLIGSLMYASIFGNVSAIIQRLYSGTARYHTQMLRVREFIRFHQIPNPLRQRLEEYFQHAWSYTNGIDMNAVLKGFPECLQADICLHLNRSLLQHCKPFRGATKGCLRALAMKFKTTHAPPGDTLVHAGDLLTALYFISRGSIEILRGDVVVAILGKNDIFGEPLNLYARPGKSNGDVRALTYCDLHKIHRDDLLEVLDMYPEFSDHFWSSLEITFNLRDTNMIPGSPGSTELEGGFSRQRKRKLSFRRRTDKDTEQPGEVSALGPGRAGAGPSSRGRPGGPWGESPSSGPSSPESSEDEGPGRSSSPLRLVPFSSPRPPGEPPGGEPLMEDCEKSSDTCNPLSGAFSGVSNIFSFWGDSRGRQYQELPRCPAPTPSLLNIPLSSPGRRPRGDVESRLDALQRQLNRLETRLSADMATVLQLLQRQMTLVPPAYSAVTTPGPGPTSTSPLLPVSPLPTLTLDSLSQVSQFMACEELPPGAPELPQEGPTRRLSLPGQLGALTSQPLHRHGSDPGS
Sequence of UniProt O15438 (whole entry, looked up): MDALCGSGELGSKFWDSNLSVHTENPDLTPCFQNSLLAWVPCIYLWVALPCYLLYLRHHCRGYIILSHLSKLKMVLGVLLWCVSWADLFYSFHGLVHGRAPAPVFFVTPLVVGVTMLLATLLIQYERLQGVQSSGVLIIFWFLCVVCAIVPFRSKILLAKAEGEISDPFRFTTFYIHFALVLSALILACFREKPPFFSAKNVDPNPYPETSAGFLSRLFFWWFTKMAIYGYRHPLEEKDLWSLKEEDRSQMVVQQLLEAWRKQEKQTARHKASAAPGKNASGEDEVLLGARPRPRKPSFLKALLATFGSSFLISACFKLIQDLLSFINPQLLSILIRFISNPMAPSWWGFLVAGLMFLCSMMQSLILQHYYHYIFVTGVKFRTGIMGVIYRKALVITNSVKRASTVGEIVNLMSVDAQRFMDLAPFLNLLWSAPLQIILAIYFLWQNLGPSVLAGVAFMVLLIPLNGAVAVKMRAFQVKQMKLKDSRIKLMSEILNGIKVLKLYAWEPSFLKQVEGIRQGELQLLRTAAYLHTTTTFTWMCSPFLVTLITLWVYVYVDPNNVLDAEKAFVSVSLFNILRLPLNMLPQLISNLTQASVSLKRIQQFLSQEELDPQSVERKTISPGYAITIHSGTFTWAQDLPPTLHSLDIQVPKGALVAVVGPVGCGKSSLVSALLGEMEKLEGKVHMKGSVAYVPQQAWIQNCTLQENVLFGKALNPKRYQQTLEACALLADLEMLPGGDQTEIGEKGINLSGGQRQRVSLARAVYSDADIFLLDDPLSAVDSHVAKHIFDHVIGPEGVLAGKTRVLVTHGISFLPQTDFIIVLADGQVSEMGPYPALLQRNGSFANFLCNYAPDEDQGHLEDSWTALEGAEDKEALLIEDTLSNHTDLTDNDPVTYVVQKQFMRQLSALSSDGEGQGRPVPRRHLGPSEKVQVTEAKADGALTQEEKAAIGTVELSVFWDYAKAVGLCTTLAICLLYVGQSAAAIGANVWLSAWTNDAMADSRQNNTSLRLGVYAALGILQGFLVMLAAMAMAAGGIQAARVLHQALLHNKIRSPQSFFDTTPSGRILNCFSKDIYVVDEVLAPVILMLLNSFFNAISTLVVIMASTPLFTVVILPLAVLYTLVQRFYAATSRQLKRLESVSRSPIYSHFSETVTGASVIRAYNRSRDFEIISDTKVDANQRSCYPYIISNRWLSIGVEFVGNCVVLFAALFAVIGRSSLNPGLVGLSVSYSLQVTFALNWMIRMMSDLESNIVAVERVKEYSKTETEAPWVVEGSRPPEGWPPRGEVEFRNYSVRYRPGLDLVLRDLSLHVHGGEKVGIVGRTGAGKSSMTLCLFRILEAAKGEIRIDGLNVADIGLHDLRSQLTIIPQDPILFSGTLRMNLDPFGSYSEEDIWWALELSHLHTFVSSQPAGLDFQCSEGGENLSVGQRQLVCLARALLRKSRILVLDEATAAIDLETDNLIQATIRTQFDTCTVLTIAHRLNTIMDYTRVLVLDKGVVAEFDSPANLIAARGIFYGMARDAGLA
Sequence of UniProt Q53GS9 (whole entry, looked up): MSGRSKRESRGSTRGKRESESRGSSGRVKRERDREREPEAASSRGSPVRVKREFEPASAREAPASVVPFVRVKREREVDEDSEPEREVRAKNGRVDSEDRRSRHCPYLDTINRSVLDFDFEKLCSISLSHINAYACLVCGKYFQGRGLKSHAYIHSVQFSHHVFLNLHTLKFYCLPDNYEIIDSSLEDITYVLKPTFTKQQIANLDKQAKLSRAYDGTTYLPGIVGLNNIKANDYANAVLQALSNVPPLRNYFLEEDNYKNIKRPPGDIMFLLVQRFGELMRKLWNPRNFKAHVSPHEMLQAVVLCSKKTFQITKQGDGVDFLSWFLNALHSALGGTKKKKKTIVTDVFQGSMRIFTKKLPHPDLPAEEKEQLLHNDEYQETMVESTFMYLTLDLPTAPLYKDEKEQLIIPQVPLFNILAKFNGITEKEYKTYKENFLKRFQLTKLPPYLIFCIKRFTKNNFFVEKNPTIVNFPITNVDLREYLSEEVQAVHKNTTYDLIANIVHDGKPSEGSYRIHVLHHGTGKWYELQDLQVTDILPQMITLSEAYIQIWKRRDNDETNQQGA

Cc1ccnc([18F])c1-c1cccc(N2C[C@H](N3CCN(C(=O)c4nccs4)CC3)CC2=O)c1
VT (monoacylglycerol lipase; PET, arterial input; rhesus monkey, brain striatum; intravenous, baseline): 8.15 mL/cm3

COc1cc(O)c(CC=C(C)C)c2c1C(=O)CC(c1ccc(O)cc1)O2 (centres unmarked)
inhibition (CYP3A4 (human); enzyme activity, inhibitor; human liver microsomes; 10 µM, pH 7.4, together with: midazolam): < 10%

C=CCN=C=S
inhibition (CYP2A6; enzyme activity; human liver microsomes; concentration not given, 10 min, together with: coumarin): > 75%

CCOc1cc2ncc(C#N)c(Nc3ccc(OCc4ccccn4)c(Cl)c3)c2cc1NC(=O)/C=C/CN(C)C
Papp A-B (ABCG2; bidirectional transwell permeability; MDCKII cells transfected with ABCG2; 1 µM, 1 h, pH 7.4, together with: Ko143 1 µM): 3.31 ± 0.44 ×10⁻⁶ cm/s

CC(C)(C)N1Cc2cccc(n2)CN(C(C)(C)C)Cc2cccc(n2)C1
pKa (Cu(II) complex; UV-vis titration; 0.1 M NaCl; 25 °C, bound water deprotonation): 9.45

CC(C)c1nc(N(C)S(C)(=O)=O)nc(-c2ccc(F)cc2)c1/C=C/[C@@H](O)C[C@@H](O)CC(=O)O
efflux ratio (ABCG2; substrate; Caco-2; 5 µM, 2 h, together with: Ko143 5 µM; reference: B to A over A to B): 21.2

Cc1cc(Nc2ncnc3ccc(NC4=NC(C)(C)CO4)cc23)ccc1Oc1ccn2ncnc2c1
Papp A-B (ABCG2; bidirectional transwell permeability; MDCKII cells transfected with ABCG2; 1 µM, 1 h, pH 7.4): 2.91 ± 0.81 ×10⁻⁶ cm/s

Nc1ncnc2c1ncn2[C@H]1C[C@H](O)[C@@H](COP(=O)(O)OP(=O)(O)O)O1
z-scored log2 fold change (binding, equilibrium dialysis LC-MS; 5 µM, thermostabilized A2AR-BRIL construct; reference: no-protein control, direction not given): -0.0812

N#C[C@H](C[C@@H]1CCCNC1=O)NC(=O)[C@H](CC1CC1)NC(=O)c1cc2cccc(Cl)c2[nH]1
intrinsic clearance (CYP2A6; NADPH metabolic stability; 2 µM, pH 7.4, 100 pmol/mL enzyme): < 0.054 µL/min/pmol

C[C@]12CCCN1CC1=NNC(=O)c3cc(F)cc4[nH]c2c1c34
uptake rate (ABCG2; substrate; membrane vesicles; 30 µM, together with: ATP): 8.25 ± 4 pmol/min/mg

C[C@@H](c1ccc2nccn2c1)n1nnc2ncc(-c3cnn(C)c3)nc21
EC50 (CYP3A4 (human); mRNA induction, inducer, measured: CYP3A4 mRNA; primary human hepatocytes; 48 h): 6.1 ± 0.8 µM

CC[C@H]1[C@@H](O)[C@@H]2[C@H](CC[C@]3(C)[C@@H]([C@H](C)CCNC(=O)NS(=O)(=O)c4ccc(C(C)(C)C)cc4)CC[C@@H]23)[C@@]2(C)CC[C@@H](O)C[C@@H]12
half-life geometric mean (CYP3A4; substrate; human, plasma; 10 mg, alone, study day 1): 10.4 h

Cc1cc(/C=C/C#N)cc(C)c1Nc1ccnc(Nc2ccc(C#N)cc2)n1
inhibition (KCNH2; hERG current, manual patch clamp; CHO stably expressing hERG; 10 µM): 93.7%

COc1cc(O)c(CC=C(C)C)c(O)c1C(=O)/C=C/c1ccc(O)cc1
inhibition (CYP3A4 (human); enzyme activity, inhibitor; human liver microsomes; 10 µM, pH 7.4, together with: midazolam): < 10%

[H]/N=C(/N)c1ccc(NCc2nc3cc(C(=O)N(CCC(=O)O)c4ccccn4)ccc3n2C)cc1
Cmax ratio (P-glycoprotein; substrate; healthy human, plasma; oral, adjusted geometric mean, together with: vepdegestrant 200 mg; reference: with vepdegestrant over alone): 192%

C=CC(=O)N1C[C@H](Nc2ncnc3[nH]ccc23)CC[C@@H]1C
AUC(0-inf) (CYP3A; substrate; human, plasma; oral, 30 mg single dose, cpd alone): 268 ng·h/mL

Cc1cc(C)c(CNC(=O)c2cc(Cl)c3c(c2C)O[C@@](C)([C@H]2CC[C@H](N(C)C)CC2)O3)c(=O)[nH]1
efflux ratio (P-glycoprotein; Caco-2 monolayer; 100 µM, together with: verapamil 100 µM; reference: B-A over A-B): 0.94

C[C@H]1CN(C2COC2)CCN1c1ccc(Nc2cc(-c3ccnc(N4CCn5c(cc6c5CC(C)(C)C6)C4=O)c3CO)cn(C)c2=O)nc1
remaining compound (human CYP1A2; human liver microsomes; 1 µM, 60 min, pH 7.4, together with: furafylline 10 µM, NADPH; reference: 0 min): 57.4 ± 7.5%

Nc1ccn([C@H]2C[C@H](O)[C@@H](COP(=O)(O)OP(=O)(O)OP(=O)(O)O)O2)c(=O)n1
z-scored log2 fold change (binding, equilibrium dialysis LC-MS; 5 µM, thermostabilized A2AR-BRIL construct; reference: no-protein control, direction not given): -0.414

O=C(O)CNc1ccc2nncn2n1
Kd (Ubiquitin carboxyl-terminal hydrolase 39, ZnF-UBD domain (Homo sapiens, UniProt Q53GS9)): > 1000 µM

Cc1cc(Nc2ncnc3ccc(NC4=NC(C)(CO)CO4)cc23)ccc1Oc1ccn2ncnc2c1 (centres unmarked)
Tmax (median) (CYP3A4; human, plasma; tucatinib, day 6, together with: itraconazole): 2 h

O=C1c2ccccc2CCN1CCCCN1CCN(c2ccccn2)CC1
Hill slope (KCNH2; potassium current inhibition, inhibitor, PatchXpress electrophysiology): 0.65 ± 0.14

COc1ccc2c3c([nH]c2c1)[C@H](CC(C)C)N1C(=O)[C@H](CC(=O)NC(C)C)NC(=O)[C@@H]1C3
inhibition (ABCG2; inhibitor, measured: protoporphyrin IX; A549; 0.5 µM, 2 h, together with: 1 mM ALA): 93.2% and 62% and 73.6% and 76.7%

O=C(O)CCC(=O)Nc1ccccc1
Kd (Ubiquitin carboxyl-terminal hydrolase 49, ZnF-UBD domain (USP49, Homo sapiens, UniProt Q70CQ1)): > 1000 µM

CCc1nc2c(C)cc(N3CCN(CC(=O)N4CC(O)C4)CC3)cn2c1N(C)c1nc(-c2ccc(F)cc2)c(C#N)s1
EC50 (CYP3A4 human; enzyme induction, inducer, in vitro): 3 µM

C/C(O)=C(\C#N)C(=O)Nc1ccc(C(F)(F)F)cc1
efflux ratio (ABCG2; Caco-2; 1 µM, 2 h, pH 7.4, together with: 2 µM Ko143): 0.681

NC/C(=C\F)COc1cccc(Cn2c(=S)[nH]c(=O)c3[nH]cnc32)c1
inhibition (ABCC3 (Homo sapiens, UniProt O15438); transport, inhibitor; HEK cells expressing ABCC3; 30 µM, together with: CDCF substrate): < 50%

COc1ccc(F)cc1C(=O)NCc1ccc(-c2nn([C@@H](C)C(F)(F)F)c(N)c2C(N)=O)cc1
fraction unbound (CYP3A4; human liver microsomes): 0.97

Cc1cc(C)c(CNC(=O)c2cc(Cl)c3c(c2C)O[C@@](C)([C@H]2CC[C@H](N(C)C)CC2)O3)c(=O)[nH]1
Kd (alpha-1-acid glycoprotein (human); population PK model; human, plasma): 0.221 µM

Repeated from above:
O=C(O)CNc1ccc2nncn2n1
Kd (Ubiquitin carboxyl-terminal hydrolase 39, ZnF-UBD domain (Homo sapiens, UniProt Q53GS9)): > 1000 µM

Cc1cc(Nc2ncnc3ccc(NC4=NC(C)(CO)CO4)cc23)ccc1Oc1ccn2ncnc2c1 (centres unmarked)
Tmax (median) (CYP3A4; human, plasma; tucatinib, day 6, together with: itraconazole): 2 h

O=C1c2ccccc2CCN1CCCCN1CCN(c2ccccn2)CC1
Hill slope (KCNH2; potassium current inhibition, inhibitor, PatchXpress electrophysiology): 0.65 ± 0.14

COc1ccc2c3c([nH]c2c1)[C@H](CC(C)C)N1C(=O)[C@H](CC(=O)NC(C)C)NC(=O)[C@@H]1C3
inhibition (ABCG2; inhibitor, measured: protoporphyrin IX; A549; 0.5 µM, 2 h, together with: 1 mM ALA): 93.2% and 62% and 73.6% and 76.7%
